Measured values collected from several papers.

`O=c1cc(-c2ccccc2)oc2c(Br)c(O)c(O)c(O)c12` gave a half-life of 5.5 h (C57BL/6 mouse, plasma; oral, 250 mg/kg, single dose).
For `C[C@@](O)(C(F)F)[C@H](NC(=O)c1ccc(C#CC#CC2CC2)cc1)C(=O)NO`, the half-life was 1.1 h (mouse, plasma; intraperitoneal, 40 mg/kg).
`O=C(CN1CCN(c2cc3c(cc2F)c(=O)c(C(=O)O)cn3C2CC2)CC1)Nc1ccc(Cl)cc1` has a half-life of 6.51 h (mouse, plasma; intravenous, 3.75 mg/kg).
The half-life of `CCCCCCCC(=O)OC[C@H](NC(=O)[C@H](CO)NC(=O)CN)C(=O)N[C@@H](Cc1ccccc1)C(=O)N[C@@H](CC(C)C)C(=O)N[C@@H](CO)C(=O)N1CCC[C@H]1C(=O)N[C@@H](CCC(=O)O)C(=O)N[C@@H](Cc1cnc[nH]1)C(=O)N[C@@H](CCC(N)=O)C(=O)N[C@@H](CCCNC(=N)N)C(=O)N[C@H](C(=O)N[C@@H](CCC(N)=O)C(=O)N[C@@H](CCC(N)=O)C(=O)N[C@@H](CCCNC(=N)N)C(=O)N[C@@H](CCCCN)C(=O)N[C@@H](CCC(=O)O)C(=O)N[C@@H](CO)C(=O)N[C@@H](CCCCN)C(=O)N[C@@H](CCCCN)C(=O)N1CCC[C@H]1C(=O)N1CCC[C@H]1C(=O)N[C@@H](C)C(=O)N[C@@H](CCCCN)C(=O)N[C@@H](CC(C)C)C(=O)N[C@@H](CCC(N)=O)C(=O)N1CCC[C@H]1C(=O)N[C@@H](CCCNC(=N)N)C(=O)O)C(C)C` is reported as 0.247 h (mouse, plasma; intraperitoneal, 7.2 mg/kg).
`CN(C)CCN(Cc1ccccc1)C(=O)c1cc(-c2ccc(F)cc2)n2nc(C(C)(C)C)cc2n1` has a half-life of ~3.7 h (C57BL/6 mouse, plasma; subcutaneous, 35 mg/kg, single dose).
For `CC[C@H](C)[C@H](NC(=O)CNC(=O)[C@H](CCSC)NC(=O)[C@H](CCC(N)=O)NC(=O)[C@H](C)NC(=O)[C@H](CCC(N)=O)NC(=O)[C@@H](NC(=O)[C@H](CC(C)C)NC(=O)[C@H](C)NC(=O)[C@H](CO)NC(=O)[C@H](CCSC)NC(=O)[C@H](CCC(=O)O)NC(=O)[C@H](CC(C)C)NC(=O)[C@H](Cc1ccc(O)cc1)NC(=O)[C@H](CO)NC(=O)[C@H](CCC(=O)O)NC(=O)[C@H](CCC(N)=O)NC(=O)[C@H](CCCNC(=N)N)NC(=O)[C@H](CCCCN)NC(=O)[C@H](CC(=O)O)NC(=O)[C@H](CC(C)C)NC(=O)[C@H](CC(N)=O)NC(=O)[C@H](Cc1ccccc1)NC(=O)[C@H](CCC(=O)O)NC(=O)[C@H](CCCCN)NC(=O)[C@@H](NC(=O)[C@H](CC(C)C)NC(=O)[C@H](CCC(=O)O)NC(=O)[C@H](CCC(=O)O)NC(=O)[C@@H](NC(=O)[C@@H](NC(=O)[C@H](CCCNC(=N)N)NC(=O)[C@H](CCCCN)NC(=O)[C@H](C)NC(=O)[C@H](Cc1ccccc1)NC(=O)[C@H](CCC(=O)O)NC(=O)[C@H](CCC(=O)O)NC(=O)[C@H](CC(C)C)NC(=O)[C@@H](N)CO)C(C)C)C(C)C)C(C)C)[C@@H](C)CC)C(=O)N[C@@H](CO)C(=O)N[C@@H](CCC(=O)O)C(=O)N[C@@H](CCCNC(=N)N)C(=O)N[C@H](C(=O)N[C@H](C(=O)N[C@@H](CCC(=O)O)C(=O)N[C@H](C(=O)N[C@H](C(=O)N[C@@H](CC(C)C)C(=O)N[C@@H](CCCNC(=N)N)C(=O)N[C@@H](Cc1c[nH]cn1)C(=O)N[C@@H](C)C(=O)N[C@@H](C)C(=O)N[C@@H](CCC(N)=O)C(=O)N[C@H](C(=O)N[C@@H](CC(C)C)C(=O)N[C@@H](CCCCN)C(=O)O)[C@@H](C)O)C(C)C)[C@@H](C)CC)[C@@H](C)CC)[C@@H](C)CC`, the half-life was ~2.6 h (male mouse, plasma; intravenous, 1 mg/kg).
With `C/C(=N\OCCCN1CCCCC1)c1ccc(C(F)(F)F)cc1` the half-life was 4.52 h (mouse, plasma; intravenous, 5 mg/kg).
With `CN(CC(=O)N(Cc1ccc(C2CCCCC2)cc1)c1ccc(C(=O)O)cc1)S(=O)(=O)c1c(F)c(F)c(F)c(F)c1F` the half-life was 0.167 h (mouse, plasma; intraperitoneal, 20 mg/kg).
`CS(C)(=O)=Nc1ccc(-c2ccc(-c3nc4cc(O[C@@H]5CO[C@H]6[C@@H]5OC[C@H]6O)[nH]c4cc3F)cc2)cc1` gave a half-life of 2.1 h (female C57BL/6 mouse, plasma; oral, 10 mg/kg).
With `CC(C)[C@H]1NC(=O)C[C@H]2/C=C/CCSSC[C@@H](NC1=O)C(=O)N[C@H](Cc1cccc3ccccc13)C(=O)NCC(=O)O2` the half-life was 0.2 h (nude mouse, blood; oral, 24 mg/kg).
For `CCC[C@@H]1O[C@@H]2C[C@H]3[C@@H]4C[C@H](F)C5=CC(=O)CC[C@]5(C)[C@@]4(F)[C@@H](O)C[C@]3(C)[C@]2(C(=O)CO)O1`, the half-life was ~0.333 h (CD-1 mouse, plasma; intravenous).
The half-life of `c1ccc(C2(CCNC3CCC4(SCCS4)c4ccccc43)CCOC3(CCCC3)C2)nc1` (stereo not shown) is reported as 0.67 h (male CD-1 mouse, plasma; subcutaneous, 0.1 mg/kg).
`CC(=O)N[C@@H](Cc1ccc(O)cc1)C(=O)N[C@@H](CC(C)C)C(=O)N[C@@H](CS)C(=O)N[C@@H](CO)C(=O)N[C@@H](CO)C(=O)N[C@@H](CC(N)=O)C(=O)N[C@@H](CC(N)=O)C(=O)N[C@@]1(C)CCCC=CCCC[C@@](C)(C(=O)N[C@@H](CCCCN)C(=O)N[C@@H](Cc2ccccc2)C(=O)N[C@@H](CCCNC(=N)N)C(=O)N[C@@H](CCCNC(=N)N)C(=O)NCC(=O)NCC(=O)N[C@@H](CO)C(=O)NCC(=O)NCC(=O)N[C@H](C(=O)N[C@@H](CO)C(=O)N[C@@H](Cc2ccccc2)C(=O)N[C@@]2(C)CCCC=CCCC[C@@](C)(C(=O)N[C@@H](Cc3c[nH]c4ccccc34)C(=O)N[C@@H](CC(C)C)C(=O)N[C@@H](Cc3c[nH]c4ccccc34)C(=O)N3CCC[C@H]3C(N)=O)NC(=O)[C@H](Cc3c[nH]c4ccccc34)NC(=O)[C@H](Cc3ccccc3)NC(=O)[C@H](CCC(N)=O)NC2=O)[C@@H](C)O)NC(=O)[C@H](CCCNC(=N)N)NC(=O)[C@H](CCC(=O)O)NC(=O)[C@H](CCCNC(=N)N)NC1=O` gave a half-life of 13.9 h (male C57BL/6 mouse, plasma; intraperitoneal, single dose).
`COc1ccc(F)cc1S(=O)(=O)Nc1cnc2c(c1)C(=O)NCCO2` gave a half-life of 1.2 h (male C57BL/6 mouse, plasma; oral, 0.3 mg/kg, single dose).
For `CCCCCCCC(=O)NC[C@H](NC(=O)[C@H](CO)NC(=O)CN)C(=O)N[C@@H](Cc1ccccc1)C(=O)N[C@@H](CC(C)C)C(=O)N[C@@H](CO)C(=O)N1CCC[C@H]1C(=O)N[C@@H](CCC(=O)O)C(=O)N[C@@H](Cc1c[nH]cn1)C(=O)N[C@@H](CCC(N)=O)C(=O)N[C@@H](CCCNC(=N)N)C(=O)N[C@H](C(=O)N[C@@H](CCC(N)=O)C(=O)N[C@H](C(=O)N[C@@H](CCCNC(=N)N)C(=O)N1CCC[C@H]1C(=O)N1CCC[C@H]1C(=O)N[C@@H](Cc1c[nH]cn1)C(=O)N[C@@H](CCCCN)C(=O)N[C@@H](C)C(=O)N1CCC[C@H]1C(=O)N[C@@H](Cc1c[nH]cn1)C(=O)N[C@H](C(=O)N[C@H](C(=O)O)C(C)C)C(C)C)C(C)C)C(C)C`, the half-life was 0.21 h (mouse, plasma; subcutaneous, 7.2 mg/kg).
`CC1(O)CC23CC(O)C4(O)C(C5OC5C4(C)C)C(C)(O)C2CCC1C3O` (stereo not shown) gave a half-life of 1.37 h (mouse, plasma; oral, 0.2 mg/kg).

For quick reference, copied from above:
`CS(C)(=O)=Nc1ccc(-c2ccc(-c3nc4cc(O[C@@H]5CO[C@H]6[C@@H]5OC[C@H]6O)[nH]c4cc3F)cc2)cc1` gave a half-life of 2.1 h (female C57BL/6 mouse, plasma; oral, 10 mg/kg).
The half-life of `CCCCCCCC(=O)OC[C@H](NC(=O)[C@H](CO)NC(=O)CN)C(=O)N[C@@H](Cc1ccccc1)C(=O)N[C@@H](CC(C)C)C(=O)N[C@@H](CO)C(=O)N1CCC[C@H]1C(=O)N[C@@H](CCC(=O)O)C(=O)N[C@@H](Cc1cnc[nH]1)C(=O)N[C@@H](CCC(N)=O)C(=O)N[C@@H](CCCNC(=N)N)C(=O)N[C@H](C(=O)N[C@@H](CCC(N)=O)C(=O)N[C@@H](CCC(N)=O)C(=O)N[C@@H](CCCNC(=N)N)C(=O)N[C@@H](CCCCN)C(=O)N[C@@H](CCC(=O)O)C(=O)N[C@@H](CO)C(=O)N[C@@H](CCCCN)C(=O)N[C@@H](CCCCN)C(=O)N1CCC[C@H]1C(=O)N1CCC[C@H]1C(=O)N[C@@H](C)C(=O)N[C@@H](CCCCN)C(=O)N[C@@H](CC(C)C)C(=O)N[C@@H](CCC(N)=O)C(=O)N1CCC[C@H]1C(=O)N[C@@H](CCCNC(=N)N)C(=O)O)C(C)C` is reported as 0.247 h (mouse, plasma; intraperitoneal, 7.2 mg/kg).
For `CCC[C@@H]1O[C@@H]2C[C@H]3[C@@H]4C[C@H](F)C5=CC(=O)CC[C@]5(C)[C@@]4(F)[C@@H](O)C[C@]3(C)[C@]2(C(=O)CO)O1`, the half-life was ~0.333 h (CD-1 mouse, plasma; intravenous).
